Results of several laboratories.
Each numbered part is a random draw from the data of one study; scales do not carry over between parts. Positions count from the first letter of the parent shown.

Study 1
Target: RNA binding protein fox-1 homolog 2, RRM domain, GST-SBP tag (RBFOX2, Homo sapiens, UniProt O43251-10, residues 100-194)
Technique: RNA Bind-n-Seq
Molecule type: RNA
Medium: in vitro
Concentration: 365 nM
Setting: natural RNA segment, single round, ends assumed
Relative to: no-protein control
Direction: higher = stronger binding
Constant ends, left off below: GGGAGUUCUACAGUCCGACGAUC … UGGAAUUCUCGGGUGCCAA
Target sequence (chain): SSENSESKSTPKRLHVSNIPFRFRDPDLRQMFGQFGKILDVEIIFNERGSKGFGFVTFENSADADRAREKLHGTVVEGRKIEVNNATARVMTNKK
`GGCACAGCUUGCAGGACCCUGGCUUUCUAAGCUGAACCACAGAUUGUUCUUCCACCCACCCUCUCUUUUUCUUUUUCUUUCAAGACAGGGAUUCUACGUGUAGCCCUGGC` — result for “RBNS enrichment (R)”: 0.601.
`CCUGCUGUGGGAAGAGGGUACUGAAUGGGCAAGAGCCUACAAGGUUCAGUCUAUGAUGGAGAGGGGACCAGGUCAAGGGCCUCAGCCAGAGCAGACCAGGCUGCCUCAGA`: “RBNS enrichment (R)” 0.329.
For `GGUGGAGCCUCAAACUAAAACCUUCUUUUAUGGAAAGAAGGCUGUGGCCAAAAGCCCCGUAUCAAACUGCCAUUUCUUCCGGUUUCUGUGGACCUUGUGGCCAGGUGCUC`, “RBNS enrichment (R)” read 0.263.
For `UACUUUGUGAAUUUGUUUCUUUGAAUUUUCAUUUUUCAUUUAGUUUUCCUUGCAUACAAAUAAGCAUAUAAAAUGGCAACAAACUGCACAUGAUUUCACAAAUAUUAAAA`, “RBNS enrichment (R)” read 1.37.
`AACCAAGCUGGGUCUAUAAGGAAUUGCACAUGAGAUGGCACACAUAUUUAUGCUGUCUGAAGGUCACGAUCAUGUUACCAUAUCAAGCUGAAAAUGUCACCACUAUCUGG`: “RBNS enrichment (R)” 0.278.
`GCAGGUCUCAGGAUCGGGGAUAACAUCGCUCCCACCCUGCUCAUUUAGAGAUGGGAAACAAGCAAGAGCUUGACUUGCCUCCCAUCCCUCAGCCUGUCUGUGGCAGAGCC`: “RBNS enrichment (R)” 0.894.
Under “RBNS enrichment (R)”, `ACUGUGUAAGGAAAAUUACUUUUGUAUUGUUUGUUGGUUAUUUCCAAAAUAACCACCUUGUAAAUACCCUUAGAGCCAGCCCUGAUGCUUUACAUCAUUGCUACUUGAUU` is recorded as 0.315.
`CUUCCAGGCACUGGCCUGAUGCCCCGCCCUGGUGCUCUCCCCAGGCUCCCUCCUCAGCCUCCUGCCCACCCAGGGCCCUUUACUCUCUUCUCCCUCCAGACCUUCCUCUG`: “RBNS enrichment (R)” 1.
For `CAUCACUGCCGUUGGUCUCUCAUGACUUAACUGGCUUCCCUCUGCUGCUGCCUUGGCUUCCUCCUAAUGCUCGUGCUCUCCUGUCCUUCUGAAGUUGCUCCUUGGCCAAA`, “RBNS enrichment (R)” read 1.22.
Under “RBNS enrichment (R)”, `CAGGAACCAAACACCUCCCCUGCACCUGUUCAUUCCUCCCAGUGGAGACUUCAGAUUGGAAUACCUUGGGAUCUCCUCACCCCACUUUACAGAACUGCCCAAUCCAGGGG` is recorded as 0.428.
`AGUUACACACUCAGUAAACACUGGUUAUCAGUCAUUGGAAAGGUUACCUGUGCAACCACCAGAUUCCAUUUCUACUUCUCUUCCCCAGAGGUCUCAGCAAUGAAUCGGGA`: “RBNS enrichment (R)” 0.291.
`ACUCCACUGCCACCGUGGUGCCUGGCUUCAGCUCCCCUCCCCCAAUCCCUGCUAAGCCUCUACUCUGCAGGGAGACGCGACUGGCGGCUCCAGCAGGAACUACCUUUCUG`: “RBNS enrichment (R)” 0.334.

Study 2
Target: UBE2V2 UBC core domain (UniProt Q15819)
Technique: yeast two-hybrid
Medium: yeast
Setting: mostly zero background
Relative to: not given
Direction: higher = stronger interaction
B1: MKRN1 RING domain (UniProt Q9UHC7); chain FAVQRSKDMVCGICMEVVYEKANPSERRFGILSNCNHTYCLKCIRKWRSAKQFESKIIKSCPECRITSNFVIPSE
B2: VPS41 RING domain (UniProt P49754); chain KGVLVDEENICESCLSPILPSDAAKPFSVVVFHCRHMFHKECLPMPSMNSAAQFCNICSAKNRGPGSAI
B3: RNF111 RING domain (UniProt Q6ZNA4); chain EGTEEDTEEKCTICLSILEEGEDVRRLPCMHLFHQVCVDQWLITNKKCPICRVDIEAQLPSE
B4: TRIM4 RING domain (UniProt Q9C037); chain EAEDIQEELTCPICLDYFQDPVSIECGHNFCRGCLHRNWAPGGGPFPCPECRHPSAPAALRP
B5: TRIM43 RING domain (UniProt Q96BQ3); chain FSHAFQKELTCVICLNYLVDPVTICCGHSFCRPCLCLSWEEAQSPANCPACREPSPKMDFKT
B6: TRIM5 RING domain (UniProt Q9C035); chain LREVKLSPEGQKVDHCARHGEKLLLFCQEDGKVICWLCERSQEHRGHHTFLTEEVAREYQVKL
B7: RNF38 RING domain (UniProt Q9H0F5); chain PNNHQSEQTLCVVCMCDFESRQLLRVLPCNHEFHAKCVDKWLKANRTCPICRADASEVHRDS
Construct (chain): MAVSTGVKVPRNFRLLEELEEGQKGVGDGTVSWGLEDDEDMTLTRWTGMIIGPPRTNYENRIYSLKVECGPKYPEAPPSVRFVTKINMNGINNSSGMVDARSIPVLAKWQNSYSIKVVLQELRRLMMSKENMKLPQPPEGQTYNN
For `B1 (MKRN1 RING domain)`, “lacZ reporter activity” read 0.
`B2 (VPS41 RING domain)` — result for “lacZ reporter activity”: 0.
`B3 (RNF111 RING domain)` — result for “lacZ reporter activity”: 0.
`B4 (TRIM4 RING domain)` — result for “lacZ reporter activity”: 0.
`B5 (TRIM43 RING domain)`: “lacZ reporter activity” 0.
For `PAELEVQASECVVCLEREAQMIFLNCGHVCCCQQCCQPLRTCPLCRQDIAQRLRIY (LRSAM1 RING domain (UniProt Q6UWE0))`, “lacZ reporter activity” read 0.
`B6 (TRIM5 RING domain)`: “lacZ reporter activity” 0.
`B7 (RNF38 RING domain)` — result for “lacZ reporter activity”: 0.

Study 3
Target: CCNA2, cyclin fold, Cln2 fusion (human)
Technique: yeast growth competition, sequencing
Medium: yeast
Setting: strong parent motif
Relative to: not given
Direction: higher = stronger binding
Parent: CDKN1A docking peptide (human); SKACRRLFGPVDS; partner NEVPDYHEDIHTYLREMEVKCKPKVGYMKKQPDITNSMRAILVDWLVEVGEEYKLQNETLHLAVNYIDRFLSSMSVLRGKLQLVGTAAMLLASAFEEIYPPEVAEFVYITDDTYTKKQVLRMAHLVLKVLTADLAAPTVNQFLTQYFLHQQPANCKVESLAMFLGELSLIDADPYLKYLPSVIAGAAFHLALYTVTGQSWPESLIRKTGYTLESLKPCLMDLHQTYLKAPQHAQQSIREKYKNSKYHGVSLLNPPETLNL
Under “normalised enrichment score”, `SKACKRLLGPVDS [R5K F8L]` is recorded as 0.3.
Under “normalised enrichment score”, `SKACRKLFGPVDS [R6K]` is recorded as 5.05.
For `SKACRRIFGPVDS [L7I]`, “normalised enrichment score” read 1.78.
`SKACRRLFGPVVS [D12V]` — result for “normalised enrichment score”: 5.17.
Under “normalised enrichment score”, `SKACRRWFGPVDS [L7W]` is recorded as 0.782.
`SKMCRRLFGPVDS [A3M]` — result for “normalised enrichment score”: 3.07.
For `SKACLRLFGPVDS [R5L]`, “normalised enrichment score” read 0.96.
`SKACRRLFGSVDS [P10S]`: “normalised enrichment score” 5.69.
`SMACRRLFGPVDS [K2M]` — result for “normalised enrichment score”: 4.83.
Under “normalised enrichment score”, `SKACRRLFNPVDS [G9N]` is recorded as 5.35.
Under “normalised enrichment score”, `SKACRRLFGKVDS [P10K]` is recorded as 4.81.
`SKACRRLFGPLDS [V11L]`: “normalised enrichment score” 5.44.
Under “normalised enrichment score”, `SKACRRTFGPVDS [L7T]` is recorded as 0.409.

Study 4
Target: ABI1, truncated, D143A, DHFR fusion (Arabidopsis thaliana)
Technique: DHFR PCA, deep sequencing
Medium: yeast
Setting: methotrexate growth selection, single substitutions
Together with: (+)-ABA 200 µM
Relative to: wild-type fitted maximum
Direction: higher = stronger binding
Parent: PYL1, truncated, DHFR fusion (Arabidopsis thaliana); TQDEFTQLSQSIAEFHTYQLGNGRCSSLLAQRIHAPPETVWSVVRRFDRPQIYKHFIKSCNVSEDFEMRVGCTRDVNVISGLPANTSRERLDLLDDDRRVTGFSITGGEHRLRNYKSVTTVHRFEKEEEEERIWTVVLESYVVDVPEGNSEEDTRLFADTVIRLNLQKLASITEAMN; partner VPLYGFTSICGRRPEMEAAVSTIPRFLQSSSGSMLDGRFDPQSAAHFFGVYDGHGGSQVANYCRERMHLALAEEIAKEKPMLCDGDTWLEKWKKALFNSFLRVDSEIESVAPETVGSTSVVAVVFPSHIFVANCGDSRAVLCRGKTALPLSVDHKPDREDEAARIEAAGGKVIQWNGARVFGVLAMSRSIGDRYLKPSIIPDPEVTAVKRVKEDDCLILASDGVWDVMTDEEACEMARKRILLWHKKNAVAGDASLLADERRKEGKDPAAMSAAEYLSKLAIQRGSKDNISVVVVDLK
Under “relative binding score”, `Y115M` is recorded as 52.6%.
`S9H`: “relative binding score” 80.9%.
For `L28Y`, “relative binding score” read 79.5%.
For `L164Y`, “relative binding score” read 91.7%.
`R45S` — result for “relative binding score”: 85.2%.
`S104L`: “relative binding score” 33.6%.
`L138P`: “relative binding score” -9.09%.
`E127A` — result for “relative binding score”: 101%.
Under “relative binding score”, `T86L` is recorded as 89.7%.
Under “relative binding score”, `G21V` is recorded as 99.4%.
`L91I`: “relative binding score” 33.2%.
Under “relative binding score”, `F103T` is recorded as -5.6%.

Study 5
Target: Histone acetyltransferase KAT6A, winged helix 2, GST fusion (KAT6A, Homo sapiens, UniProt Q92794, residues 85-181)
Technique: protein binding microarray
Molecule type: double-stranded DNA, one strand shown
Medium: in vitro
Concentration: not given
Setting: 8-mer, flanks averaged, mean of 2 arrays, mostly near background
Relative to: not given
Direction: higher = stronger binding
Residues (chain): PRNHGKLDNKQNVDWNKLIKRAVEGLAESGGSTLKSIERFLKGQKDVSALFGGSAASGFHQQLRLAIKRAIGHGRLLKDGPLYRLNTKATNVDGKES
The E-score of `ATAGTTGG` is reported as -0.0993.
For `ACGGGTAT`, the E-score was -0.0396.
`GGATGAAC` gave an E-score of 0.0265.
`AATACTTG` has an E-score of -0.0372.
For `CTGGAAGA`, the E-score was 0.132.
With `CCGCGGAG` the E-score was 0.22.
With `ACCAAGGG` the E-score was 0.0723.
With `ATAGGGGG` the E-score was -0.259.
With `AATGATGC` the E-score was 0.0946.
`GTCGTGAA` has an E-score of -0.0561.
`ACGCCCTA` gave an E-score of 0.0205.
With `CCCGCTCA` the E-score was -0.00333.
`ATCCACAG` gave an E-score of 0.0548.
For `AATATACT`, the E-score was -0.179.
For `CAATTATC`, the E-score was -0.0765.
With `CGACAGCC` the E-score was -0.0777.
For `GTATGCTA`, the E-score was 0.00547.
For `GAGTGTAC`, the E-score was -0.101.
`GGACGACC` gave an E-score of -0.00591.
`ACCTAACA` gave an E-score of 0.0467.
With `AATAGTAT` the E-score was 0.0944.
The E-score of `CCGTGAAA` is reported as -0.043.
For `AGCAGGTC`, the E-score was -0.0107.
`AGAAGGGA` gave an E-score of -0.129.
The E-score of `CCTATAAG` is reported as -0.199.

Study 6
Target: Sal-like protein 4, full length isoform B (SALL4, Homo sapiens, UniProt Q9UJQ4-2, residues 1-616)
Technique: universal PBM
Molecule type: double-stranded DNA, one strand shown
Medium: in vitro
Concentration: not given
Setting: 8-mer, flanks averaged, mean of replicates
Direction: higher = stronger binding
`CCATTAGG` gave an E-score of -0.044.
`CACCGACA` has an E-score of -0.222.
The E-score of `ACTCGGCT` is reported as -0.19.
With `CCCACGTC` the E-score was -0.191.
For `GACCCCCA`, the E-score was -0.289.
For `AGCTCTTC`, the E-score was -0.14.
With `AGCACGCA` the E-score was -0.132.
`AATCCGGG` has an E-score of -0.307.
For `CGAGAGTA`, the E-score was 0.0929.
With `AACGAGTG` the E-score was 0.102.
`GCCGGAAA` gave an E-score of -0.148.
The E-score of `CCGTAAGG` is reported as -0.218.
With `CATTCCCA` the E-score was 0.0774.
For `GACGGACA`, the E-score was -0.113.
`AAACTGTA` gave an E-score of 0.28.
For `AAATTCAA`, the E-score was 0.343.
For `AATATCAG`, the E-score was 0.256.
`ATTAGGCG` gave an E-score of -0.0101.
`AGTTGGAG` gave an E-score of -0.0967.
`CCATCCTA` has an E-score of 0.0569.
`CCGTATTA` has an E-score of 0.00461.
For `AGTATGAG`, the E-score was 0.222.
For `AACCACTG`, the E-score was -0.0248.
For `GTAGCTTA`, the E-score was 0.143.
For `CACTATTC`, the E-score was 0.13.
